Experimental data pooled from the literature.
Each line is one published result; not all experiments were run side by side. Non-standard residues stand in square brackets, D forms with d. No end group written: not given here.
T1: Ffh/4.5S SRP RNA (Escherichia coli); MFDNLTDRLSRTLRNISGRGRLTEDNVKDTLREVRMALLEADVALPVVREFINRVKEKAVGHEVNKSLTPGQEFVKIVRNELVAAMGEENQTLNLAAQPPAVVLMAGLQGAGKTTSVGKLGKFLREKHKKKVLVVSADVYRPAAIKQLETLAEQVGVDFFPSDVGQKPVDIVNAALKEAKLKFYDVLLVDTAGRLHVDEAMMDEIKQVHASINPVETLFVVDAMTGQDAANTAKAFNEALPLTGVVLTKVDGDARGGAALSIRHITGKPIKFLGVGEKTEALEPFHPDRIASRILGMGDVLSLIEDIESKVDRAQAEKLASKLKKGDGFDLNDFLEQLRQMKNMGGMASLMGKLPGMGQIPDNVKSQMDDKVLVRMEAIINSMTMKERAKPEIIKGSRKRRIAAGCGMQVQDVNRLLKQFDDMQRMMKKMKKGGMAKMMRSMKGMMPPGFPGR
B1: bfd 1-73 C43S (Pseudomonas aeruginosa, UniProt Q9HY80); chain MYVCLCQGVTDNQIRDAIYEGCCSYREVREATGVGTQCGKCASLAKQVVRETLNDLQSAQPVPAFGTTAFVAA
B2: ALDOA (Oryctolagus cuniculus, UniProt P00883); sequence looked up; chain MPHSHPALTPEQKKELSDIAHRIVAPGKGILAADESTGSIAKRLQSIGTENTEENRRFYRQLLLTADDRVNPCIGGVILFHETLYQKADDGRPFPQVIKSKGGVVGIKVDKGVVPLAGTNGETTTQGLDGLSERCAQYKKDGADFAKWRCVLKIGEHTPSALAIMENANVLARYASICQQNGIVPIVEPEILPDGDHDLKRCQYVTEKVLAAVYKALSDHHIYLEGTLLKPNMVTPGHACTQKYSHEEIAMATVTALRRTVPPAVTGVTFLSGGQSEEEASINLNAINKCPLLKPWALTFSYGRALQASALKAWGGKKENLKAAQEEYVKRALANSLACQGKYTPSGQAGAAASESLFISNHAY
B3: spoIISB (Bacillus subtilis, UniProt O34800); selenomethionine; SeMet = C[Se]CC[C@H](N)C(=O)O; chain [SeMet]ERAFQNRCEPRAAKPFKILKKRSTTSVASYQVSPHTARIFKENERLIDEYKRKKA
B4: CpxR (Escherichia coli, UniProt P0AE88); phosphorylated aspartate; chain MNKILLVDDDRELTSLLKELLEMEGFNVIVAHDGEQALDLLDDSIDLLLLDVMMPKKNGIDTLKALRQTHQTPVIMLTARGSELDRVLGLELGADDYLPKPFNDRELVARIRAILRRSHWSEQQQNNDNGSPTLEVDALVLNPGRQEASFDGQTLELTGTEFTLLYLLAQHLGQVVSREHLSQEVLGKRLTPFDRAIDMHISNLRRKLPDRKDGHPWFKTLRGRGYLMVSAS
B5: protein 1-329 K188A (Methylobacterium extorquens, UniProt C5AP93); chain MSATLPDMDTLRERLLAGDRAALARAITLAESRRADHRAAVRDLIDAVLPQTGRAIRVGITGVPGVGKSTTIDALGSLLTAAGHKVAVLAVDPSSTRTGGSILGDKTRMARLAIDRNAFIRPSPSSGTLGGVAAKTRETMLLCEAAGFDVILVETVGVGQSETAVADLTDFFLVLMLPGAGDELQGIAKGILELADMIAVNKADDGDGERRASAAASEYRAALHILTPPSATWTPPVVTISGLHGKGLDSLWSRIEDHRSKLTATGEIAGKRREQDVKWMWALVHERLHQRLVGSAEVRQATAEAERAVAGGEHSPAAGADAIATLIGL
B6: CyaY 1-106 (Escherichia coli, UniProt P27838); chain MNDSEFHRLADQLWLTIEERLDDWDGDSDIDCEINGGVLTITFENGSKIIINRQEPLHQVWLATKQGGYHFDLKGDEWICDRSGETFWDLLEQAATQQAGETVSFR
B7: gpsI (Mycolicibacterium smegmatis, UniProt A0QVQ5); chain MSVVELEDGVYESTAVIDNGSFGTRTIRFETGRLAQQAAGSAVAYLDDETMLLSATTASKNPKDHFDFFPLTVDVEERMYAAGRIPGSFFRREGRPSTDAILTCRLIDRPLRPSFVDGLRNEIQVVVTVMSLDPKDLYDVLAINAASMSTQLAGLPFSGPVGGARIALIDGTWVAFPTVEQLERAVFDMVVAGRIVGDGDSADVAIMMVEAEATENVVELVAGGAQAPTEAVVAEGLEAAKPFIKALCAAQQELADRAAKPAGEYPVFPDYEADVYDAVASVATEALAEALTIAGKTERNDRTDEIKVEVLERLAEPYAGREKEIGAAFRSLTKKLVRQRILTDHFRIDGRGITDIRALSAEVAVIPRAHGSALFERGETQILGVTTLDMIKMAQQIDSLGPENTKRYMHHYNFPPYSTGETGRVGSPKRREIGHGALAERALVPVLPSIEEFPYAIRQVSEALGSNGSTSMGSVCASTLALLNAGVPLKAPVAGIAMGLVSDDVDVDGKVEKRYVALTDILGAEDAFGDMDFKVAGTKDFVTALQLDTKLDGIPSQVLAGALSQAKDARLTILDVMAEAIDRPDEMSPYAPRITTIKVPVDKIGEVIGPKGKMINSITEETGAQISIEDDGTVFVGAADGLSAQAAIDKINAIANPQLPKVGERFLGTVVKTTDFGAFVSLLPGRDGLVHISKLGKGKRIAKVEDVVKVGDKLRVEIADIDNRGKISLVLVAEESAESAESAGDKGAEKAEGAAADVTPAEA
B8: ftsY 47-497 K399A (Escherichia coli, UniProt P10121); chain ASEQAVEEQPQAHTEAEAETFAADVVEVTEQVAESEKAQPEAEVVAQPEPVVEETPEPVAIEREELPLPEDVNAEAVSPEEWQAEAETVEIVEAAEEEAAKEEITDEELETALAAEAAEEAVMVVPPAEEEQPVEEIAQEQEKPTKEGFFARLKRSLLKTKENLGSGFISLFRGKKIDDDLFEELEEQLLIADVGVETTRKIITNLTEGASRKQLRDAEALYGLLKEEMGEILAKVDEPLNVEGKAPFVILMVGVNGVGKTTTIGKLARQFEQQGKSVMLAAGDTFRAAAVEQLQVWGQRNNIPVIAQHTGADSASVIFDAIQAAKARNIDVLIADTAGRLQNKSHLMEELKAIVRVMKKLDVEAPHEVMLTIDASTGQNAVSQAKLFHEAVGLTGITLTKLDGTAKGGVIFSVADQFGIPIRYIGVGERIEDLRPFKADDFIEALFARED

`HIP-4.40` has an IC50 of 2400 nM (HLA-DRA/HLA-DRB1*04:01 (Homo sapiens); competition with biotinylated peptide, competitor, competition binding assay).
`envC residues 20-end (Pseudomonas aeruginosa)` has a Vmax of 121 nmol/mg/min (ftsE 1-223 (Pseudomonas aeruginosa, UniProt A0A069QBX1); ATPase activity; peptidiscs; 37 °C).
`KKILLTPRRRQRLS (TERB1 643-656 (Homo sapiens, UniProt Q8NA31))`: binding “binds” (TERF1 TRFH domain 62-265 (Homo sapiens, UniProt P54274); crystal structure; peptide).
`B1 (bfd 1-73 C43S)` — result for “iron release rate”: 0.018 min⁻¹ (bfrB 1-158 E85A (Pseudomonas aeruginosa, UniProt Q9HY79); Fe2+-bipyridine formation; with: NADPH 1 mM).
Under “cMyc protein level”, `APOBEC3B (Homo sapiens, UniProt Q9UH17)` is recorded as 3.3 fold (PFDN5 (Homo sapiens, UniProt Q99471-1); immunoblot; HEK293T; without MG132; relative to: cMyc alone, higher = more cMyc).
`TBK1 fragment I582A (Homo sapiens)` — result for “reduction of IFN-β reporter”: 40% (STING1 (Homo sapiens, UniProt Q86WV6); IFN-β luciferase reporter; TBK1 KO HEK293T; with: cGAMP; relative to: wild-type TBK1, higher = more reduction).
For `isdB fragment Y167D (Staphylococcus aureus)`, “heme transfer rate constant” read 0.062 s⁻¹ (HBA1/HBB methemoglobin (Homo sapiens); heme transfer from methemoglobin).
`B2 (ALDOA)` gave a kd2 of 0.000512 s⁻¹ (TRAP C-terminal cytoplasmic tail (Plasmodium falciparum); SPR; two-state model).
The pEC50 of `N-formyl-Met-Leu-Phe, N-formyl` is reported as < 6 pEC50 (FPR3 (Homo sapiens, UniProt P25089); inhibition of forskolin-stimulated cAMP, agonist; CHO-K1).
`B3 (spoIISB)`: binding “binds” (spoIISA cytoplasmic domain 92-248, selenomethionine (Bacillus subtilis, UniProt O34853); X-ray crystallography).
For `B4 (CpxR)`, binding read “binds” (ArcA, phosphorylated (Escherichia coli, UniProt P0A9Q1); competition, FRET; with: phosphoramidate 20 mM).
Under binding, `RPN2 (Saccharomyces cerevisiae, UniProt P32565)` is recorded as “binds” (20S proteasome core particle immobilized (Saccharomyces cerevisiae, UniProt P21243); pull-down).
The kcat of `B5 (protein 1-329 K188A)` is reported as 0.14 min⁻¹ (mcmA (Methylobacterium extorquens, UniProt C5AV67); GTP hydrolysis; GAP activity, with: MCM 2-fold).
`B6 (CyaY 1-106)`: “molecule per partner” 1 (IscS 1-404 (Escherichia coli, UniProt P0A6B7); ITC; pH 8.0, 25 °C, NaCl 150 mM).
For `HIP-4.1`, the IC50 was 2800 nM (HLA-DRA/HLA-DRB1*04:01 (Homo sapiens); competition with biotinylated peptide, competitor, competition binding assay).
`ISWI protein (Xenopus laevis, UniProt Q6DFM0)` — result for “subunits per oligomer”: 2 ISWI per nucleosome (HTA1/HTB1/HHT1/HHF1 nucleosome, 601 DNA flanks (Saccharomyces cerevisiae); EMSA).
`B7 (gpsI)` — result for binding: “binds” (rne D694R/D738R (Mycolicibacterium smegmatis, UniProt A0R152); co-IP).
`HOOK3, Alexa Fluor 488 on HaloTag (Homo sapiens, UniProt Q86VS8)` — result for binding: “binds” (KIF1C, TMR on SNAP tag (Homo sapiens, UniProt O43896); TIRF colocalisation; with: Mg-ATP 1 mM).
For `STAU1 (Homo sapiens, UniProt O95793-2)`, the mRNA enrichment was 2.2 fold (UPF1 (Homo sapiens, UniProt Q92900); reporter mRNA in eIF4E IP, tethering, IP; in cells, not purified; relative to: λN-HA-GFP, higher = more enrichment).
`Mos1 transposase R48Q/Q100R/T216A (Drosophila mauritiana)` — result for “relative cleavage activity”: 29% (MOS1 transposase T216A (Drosophila mauritiana); NTS first strand cleavage; 15 nM each; relative to: T216A transposase at 30 nM, higher = more cleavage).
`AVFLSREQANQVLQRRRR (consensus propeptide propeptide)`: binding “binds” (GGCX nanodisc-embedded (Homo sapiens, UniProt P38435); HDX-MS; peptide).
Under “time of relaxed intermediate appearance”, `topoisomerase I large subunit (Leishmania donovani)` is recorded as 30 s (TOP1 636-765, fluorescein label (Homo sapiens, UniProt P11387); supercoiled DNA relaxation; non-turnover).
The Ran:GTP protected of `RAN (UniProt P62826)` is reported as 25% (XPO1 (Homo sapiens, UniProt O14980); RanGAP protection; 330 nM, with: RanBP3 1 µM; higher = more protection).
`EDGGSWKYPDAFELSG (C3P-pd)`: “molecule per partner” 1 (MSN 1-345 (Homo sapiens, UniProt P26038); ITC; peptide).
`B8 (ftsY 47-497 K399A)` — result for “relative translocation efficiency”: 3 fold (T1, Ffh/4.5S SRP RNA (Escherichia coli); translocation; relative to: wild-type FtsY, higher = greater reduction).

Repeated from above:
The kcat of `B5 (protein 1-329 K188A)` is reported as 0.14 min⁻¹ (mcmA (Methylobacterium extorquens, UniProt C5AV67); GTP hydrolysis; GAP activity, with: MCM 2-fold).
`B3 (spoIISB)`: binding “binds” (spoIISA cytoplasmic domain 92-248, selenomethionine (Bacillus subtilis, UniProt O34853); X-ray crystallography).
`AVFLSREQANQVLQRRRR (consensus propeptide propeptide)`: binding “binds” (GGCX nanodisc-embedded (Homo sapiens, UniProt P38435); HDX-MS; peptide).
`EDGGSWKYPDAFELSG (C3P-pd)`: “molecule per partner” 1 (MSN 1-345 (Homo sapiens, UniProt P26038); ITC; peptide).
